Results collected from several papers.
A part holds a random share of what one study measured. Substitutions count along the parent as printed.

Series 1
Target: Prothrombin, mature alpha-thrombin (F2, Homo sapiens, UniProt P00734)
Method: aptamer microarray, sandwich
Molecule type: DNA with 2'F-ANA
Medium: in vitro
Tested at: 200 nM
Notes: whole 15-mer aptamer, many near background
Added: Cy3 exosite-II aptamer, 400 nM
Reading: higher = stronger binding
Sequence: GGTTGGTGTGGTTGG
Modification	mean fluorescence intensity [a.u.]
2'F-ANA at 1 5 8 9 12 13	83.2
2'F-ANA at 1 2 5 8 10 12 13 15	47.3
2'F-ANA at 1 4 7 8 10 11 14	71
2'F-ANA at 2 4 5 6 10 11 12	168
2'F-ANA at 4 5 14	46.6
2'F-ANA at 1 2 3 4 6 13 14 15	54.2
2'F-ANA at 2 3 5 9 11 12 13 14 15	55.3
2'F-ANA at 2 4 8 13 14	104
2'F-ANA at 1 2 7 9 10 12 13 15	85.1
2'F-ANA at 3 6 7 8 9 11 12 14 15	436
2'F-ANA at 4 6 7 8 9 11 12	463
2'F-ANA at 1 4 5 6 7 10 13 15	69.1
2'F-ANA at 1 2 4 7 10 11 15	53.9
2'F-ANA at 1 3 5 6 9 10 11 15	64.3
2'F-ANA at 2 3 6 8 9 12 15	1020
2'F-ANA at 1 2 7 8 10 11 12 13	61.1

Series 2
Target: CCND3, cyclin fold, Cln2 fusion (human)
Method: yeast growth competition, sequencing
Medium: yeast
Notes: weak parent motif
Reference: not given
Reading: higher = stronger binding
Starting sequence: ASZ1 docking peptide (human); GFGFLLFICKLTF; partner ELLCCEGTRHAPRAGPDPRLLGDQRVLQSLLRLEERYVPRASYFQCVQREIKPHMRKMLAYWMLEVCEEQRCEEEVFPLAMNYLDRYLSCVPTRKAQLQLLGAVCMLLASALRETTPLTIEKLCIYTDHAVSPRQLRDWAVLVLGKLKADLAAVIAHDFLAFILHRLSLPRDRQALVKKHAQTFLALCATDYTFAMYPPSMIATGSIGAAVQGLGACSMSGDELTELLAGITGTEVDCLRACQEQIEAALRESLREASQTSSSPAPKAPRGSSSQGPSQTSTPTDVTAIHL
Variant	normalised enrichment score
GFAFLLFICKLTF [G3A]	0.254
GFGFLLFICKATF [L11A]	0.216
GFGFALFICKLTF [L5A]	0.366
GFGFLLAICKLTF [F7A]	-0.238
GFGFLLFICALTF [K10A]	0.0341
GFGFLAFICKLTF [L6A]	-0.343

Series 3
Target: RNA binding protein fox-1 homolog 2, RRM domain, GST-SBP tag (RBFOX2, Homo sapiens, UniProt O43251-10, residues 100-194)
Method: RNA Bind-n-Seq
Molecule type: RNA
Medium: in vitro
Tested at: 365 nM
Notes: natural RNA segment, single round, ends assumed
Reference: no-protein control
Reading: higher = stronger binding
All sequences stand within: GGGAGUUCUACAGUCCGACGAUC … UGGAAUUCUCGGGUGCCAA
Residues (chain): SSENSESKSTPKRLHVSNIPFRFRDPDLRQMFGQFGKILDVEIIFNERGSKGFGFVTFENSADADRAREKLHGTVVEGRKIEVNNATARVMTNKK
Sequence	RBNS enrichment (R)
CCAGGAGGCCAGGGUGGUGGUGCUGCUAGGCCAUCCCAAUGUUAGGCUUGUGGGUGAUUCCCCGGGCCUUUUCAUUCAAGCUGCACACAAUGAGUCAUUAAAGUUUGUCA	1.16
AGGAAAAAAAAUUGAAUCUUGGUCAACAUUUAAACCAAAGUAAAAGGGGAAAAACCAAAGUUAUUUGUUUUGCAUGGCUAAGCCAUUCUGUUAUCUCUGUAAAUACUGUG	0.652
ACAUUUUUGUAAAUUCUGUGCCCUUUGCUGUAGCUACACUUCAGAUUAAAGUAGGAGAAAGAAUGUGCUGAGUGUUUUCCUCCCUUUGCCUCUACCUGGCCCUCAUCCCA	0.679
GGAGGAAGCAAUUCCACUUGGUUUGACAACUUCUGCCACUCCCAUGUCAGAUGACUUGCACUUCUUAAAGAGAUUGCUUUAUAACACUAAGACAUCCUUUCUAAAGAUUC	0.251
CCCUGGGGUGAGGUGCUCAGCACCUUCCUCUCGAGGAGCCACAUUUUCCUCCUUUGUGUUAGGGGACAUAACAAGCUCUGCUGGGCUUGAGGGACCCAGACCAGGUGUCU	0.175
AAUAAAGGAAAGAGAAUAUUUGGUUACUCAGAUCCAUUUUUAACCUCUGGUGCUGUAUAAAGGGAAUAUUAAACUAGAUGUAAAUCAAAGUAUAUGUUUGGCUCAUUUGA	0.834
ACUUGGUACCAUCCCUGGGCUCUGCUGGCGAGACGAAACAGCUGUAGAGAUGAAAACAGGCUGCAGAGGCUGGCACAGCCUGGCCGGCUUUUCUCCAUCUGGGGACAGUC	0.542
GGGUACUGGGUUGAAGAUCCAGCCACUUAAUUUCCCCUCUGAUUGUUUUGAUAUCUGAGAGACAGAAAGGUCUCCCCAGGCUGGUCUCCAACUCCUGGCAAUCCUCCUGC	0.415
ACGUACGCAGUGUUUACUCAGUGUGGCUCCCGCCUCAGACUGAAUUAAAGUAUUACUAUAGCAUGCCUCUCAGAACUGCUAGCUUCCUAAUAAACCACAAAUCCACCGUU	1.81
CUAAUAGUGUCUGAACAUGGUUCAAGAAUAAGAGAUUCCAUGUAGCAUUUUCUUUAUUAUUUUCAUUUCCCUUAUAUUAUCCAUCAUUCCUUAAGGACAAUUAUUCUUAA	1.08
CUACCCACUCCCCUAGGGUCUCCCAGGCUCAGAAGGGGAUGCACGCCCCCUGUGGUCAAGCCUCUGGUGGGCGUCUUGCCCAGUUCCUGAUGGUUCAAGGGGAGGGGGGA	2.39
CACUAUGUAGCUGGAACAGGAGGCCUAGGACCAGCCUGAUGCAGGUCUAUGAAGACCAGUGGUAGUGCCCAGACUUCUCCUAGACAUCUAGUCUAAAACAUUCUCCUAGG	0.613

Series 4
Target: Sal-like protein 4, full length isoform B (SALL4, Homo sapiens, UniProt Q9UJQ4-2, residues 1-616)
Method: universal PBM
Molecule type: double-stranded DNA, one strand shown
Medium: in vitro
Tested at: not given
Notes: 8-mer, flanks averaged, mean of replicates
Reading: higher = stronger binding
Residues (chain): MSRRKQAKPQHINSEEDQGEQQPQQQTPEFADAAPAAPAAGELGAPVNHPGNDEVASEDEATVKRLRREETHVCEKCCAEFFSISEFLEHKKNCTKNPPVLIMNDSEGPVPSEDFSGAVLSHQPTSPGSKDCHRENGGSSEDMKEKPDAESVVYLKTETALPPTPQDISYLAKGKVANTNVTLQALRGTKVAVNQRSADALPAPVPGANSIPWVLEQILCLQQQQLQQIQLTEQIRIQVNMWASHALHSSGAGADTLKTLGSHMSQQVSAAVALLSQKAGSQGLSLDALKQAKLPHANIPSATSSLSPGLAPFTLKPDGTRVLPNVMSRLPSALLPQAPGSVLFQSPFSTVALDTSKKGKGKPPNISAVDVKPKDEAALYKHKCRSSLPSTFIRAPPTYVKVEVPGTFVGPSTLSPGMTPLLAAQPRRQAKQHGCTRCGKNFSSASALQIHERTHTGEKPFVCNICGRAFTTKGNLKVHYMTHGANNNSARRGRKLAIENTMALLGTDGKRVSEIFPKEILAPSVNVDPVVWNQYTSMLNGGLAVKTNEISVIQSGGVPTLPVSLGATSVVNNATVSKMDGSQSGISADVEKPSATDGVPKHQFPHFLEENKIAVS
Sequence	E-score
CACCCAAC	-0.154
TATTAAGA	0.311
ATTCCGGG	-0.0977
ATAGGGCC	-0.207
CCTACCTA	0.0839
AAACCAAC	0.138
CGGCCCCG	-0.35
ACTATCAG	-0.00782
ACGCGTAC	0.0393
TCGTCCAA	0.0754
CCATGTAA	0.0854
ATTCCACG	0.0483
ACACAGAT	0.145
ACTACTAG	0.0803
GACGAGAA	0.129
GATGGGGC	-0.193
ATATGGAA	0.339
AGCCTCAT	-0.00589
CAGTAGGA	-0.116
GTCGACAC	0.0712
ACTGGTGC	-0.207

Series 5
Target: Interferon regulatory factor 7, full length, phosphomimetic (IRF7, Homo sapiens, UniProt Q92985, residues 1-503, S101K/S471D/S472D/S475D/S476D/S477D/S483D/S484D/S487D)
Chain of UniProt Q92985 (whole entry, unmodified, looked up): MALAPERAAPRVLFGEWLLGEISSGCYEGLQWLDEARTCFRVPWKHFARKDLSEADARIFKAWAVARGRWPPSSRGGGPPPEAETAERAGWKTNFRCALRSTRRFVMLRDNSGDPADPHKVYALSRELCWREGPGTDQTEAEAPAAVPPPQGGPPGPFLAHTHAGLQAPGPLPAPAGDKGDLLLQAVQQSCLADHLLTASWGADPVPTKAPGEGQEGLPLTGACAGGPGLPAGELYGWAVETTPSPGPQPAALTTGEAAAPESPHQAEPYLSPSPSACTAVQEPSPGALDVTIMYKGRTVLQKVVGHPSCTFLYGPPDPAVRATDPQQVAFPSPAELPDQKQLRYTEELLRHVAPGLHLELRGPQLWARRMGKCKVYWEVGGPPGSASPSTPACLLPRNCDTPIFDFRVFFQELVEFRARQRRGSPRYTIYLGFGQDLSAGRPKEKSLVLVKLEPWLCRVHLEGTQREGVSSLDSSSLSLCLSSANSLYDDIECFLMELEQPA
Method: protein-binding microarray
Molecule type: double-stranded DNA, one strand shown
Medium: in vitro
Tested at: 250 nM
Notes: 60-bp whole probe
Added: salmon DNA 0.4 mg/ml
Reference: random background probes
Reading: higher = stronger binding
All sequences stand within: GCCTAGCAC … GTCTTGATTCGCTTGACGCTGCTG
Sequence	log fluorescence [z-score]
TTAGGTATCGGGTTTGGGTTAGTGCTA	1.56
TTAGATTTCGGGCTTCGATTAGTGCTA	0.389
TTAGGTTTCGGTTTCGGTTTGTGCTAG	15.7
TCATGTTTTTTTCTATAACTGTGCTAG	1.1
GAAGAAATTTAATAGTCACTGTGCTAG	-0.51
TTAGACCTGAGTTTCGATTAGTGCTAG	7.6
TCATTTTCATTTTTTTTACTGTGCTAG	2.34
TCATGAACCATTTTGGTACTGTGCTAG	-0.249
GACGTTCTCAGTCTCGAGACGTGCTAG	1.11
GACGGTTTTGACTTTCGGGACGTGCTA	1.96
TTAGGTTTCCTTTCCCGTTAGTGCTAG	4.83
GACGGTTCCCTTTTCCTGAAGTGCTAG	2.99
CAACATCTGCAAGATCCACAAGTGCTA	-0.356
TTAGTACTGGGGTATCGGTTAGTGCTA	0.408
TCACATTTTTTTTGCAAACTGTGCTAG	0.987
TTTGGTTTCGGTTTCGGTTAGTGCTAG	15.2
GTAGGTTTCCTTCTCCTTTAGTGCTAG	1.99
GACGATATCGGGTATCGGGACGTGCTA	-0.0116
TTAGATTTCAGTCTCGGTTAGTGCTAG	2.19
CATTTTCTCTGTTCTAGAAGGTGCTAG	3.72
TTAGATATCAATTTCGATTAGTGCTAG	1.64
TTAGGTTCCCTTCTCCTTTAGTGCTAG	2.12
GAGTTTCTATTTTCTGAATGGTGCTAG	10.1

Other studies, line by line
Substance	target	assay	system	setting	scale	endpoint	result
PhoQ, residues 284 288 289 292 302 303 SNSSNI	PhoP, residues 12 14 15 18 19 GQALL (Escherichia coli, UniProt P23836)	Sort-seq, refers to: YFP reporter	E. coli	PhoQ-PhoP variant library, added: 10 µM Mg2+	reference: high Mg2+ state, higher = stronger signaling	fold induction	3.66

For quick reference, copied from above (series 5):
Sequence	log fluorescence [z-score]
TTTGGTTTCGGTTTCGGTTAGTGCTAG	15.2
TTAGGTTTCGGTTTCGGTTTGTGCTAG	15.7
GAAGAAATTTAATAGTCACTGTGCTAG	-0.51
GACGGTTTTGACTTTCGGGACGTGCTA	1.96
